Measurements collected from several papers.
Parts stem from different laboratories: compare values within a part only. Positions count from the first letter of the parent shown.

Series 1
Target: UDP-N-acetylglucosamine--peptide N-acetylglucosaminyltransferase 110 kDa subunit (OGT, Homo sapiens, UniProt O15294)
Sequence of UniProt O15294 (whole entry, looked up): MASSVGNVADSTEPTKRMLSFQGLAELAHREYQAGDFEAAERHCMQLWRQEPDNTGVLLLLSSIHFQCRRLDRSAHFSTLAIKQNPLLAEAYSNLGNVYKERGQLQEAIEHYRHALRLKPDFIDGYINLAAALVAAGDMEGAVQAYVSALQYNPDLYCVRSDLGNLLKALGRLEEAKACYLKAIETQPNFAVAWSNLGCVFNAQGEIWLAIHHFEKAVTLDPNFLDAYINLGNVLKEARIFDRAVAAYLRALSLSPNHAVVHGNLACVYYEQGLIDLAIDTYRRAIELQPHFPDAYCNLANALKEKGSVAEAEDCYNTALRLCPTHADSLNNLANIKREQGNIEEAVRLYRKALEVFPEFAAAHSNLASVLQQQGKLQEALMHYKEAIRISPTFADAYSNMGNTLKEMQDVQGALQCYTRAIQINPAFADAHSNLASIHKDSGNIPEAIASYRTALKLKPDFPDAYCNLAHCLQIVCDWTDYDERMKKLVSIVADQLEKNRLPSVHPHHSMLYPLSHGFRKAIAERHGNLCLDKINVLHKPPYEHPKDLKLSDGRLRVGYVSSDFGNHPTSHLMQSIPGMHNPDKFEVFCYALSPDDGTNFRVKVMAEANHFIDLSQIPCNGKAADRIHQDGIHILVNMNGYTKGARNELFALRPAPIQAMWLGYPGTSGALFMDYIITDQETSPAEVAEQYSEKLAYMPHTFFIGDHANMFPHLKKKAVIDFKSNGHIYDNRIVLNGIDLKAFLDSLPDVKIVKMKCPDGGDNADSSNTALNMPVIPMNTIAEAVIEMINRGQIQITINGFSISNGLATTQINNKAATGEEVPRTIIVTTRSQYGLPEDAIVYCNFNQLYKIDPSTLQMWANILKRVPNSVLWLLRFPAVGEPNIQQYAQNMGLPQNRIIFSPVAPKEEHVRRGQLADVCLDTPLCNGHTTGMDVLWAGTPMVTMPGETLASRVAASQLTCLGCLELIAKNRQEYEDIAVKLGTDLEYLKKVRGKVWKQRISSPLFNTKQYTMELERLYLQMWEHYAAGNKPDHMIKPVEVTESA
Read-out: binding
Technique: phage display NGS
Form: peptide
Relative to: input library
`TNFMPLYQIPTTQYF` — result for “minimum log2 enrichment ratio”: 4.21.
Under “minimum log2 enrichment ratio”, `WTDHGGNIIHTHHH` is recorded as 5.78.
`WTPHPAHDNKPHYR`: “minimum log2 enrichment ratio” 1.43.
`YERDYQHFMPQYQIM` — result for “minimum log2 enrichment ratio”: 1.25.
Under “minimum log2 enrichment ratio”, `ASQYDFMPAYRIDVG` is recorded as 3.22.
`QQPRYYPQYQMRYKV`: “minimum log2 enrichment ratio” 3.22.
`WPGHSHNNYAHHTGH` — result for “minimum log2 enrichment ratio”: 2.59.

Series 2
Target: inorganic phosphate, free oxyanion
Technique: microfluidic competitive inhibition
Sample: in vitro, cell-free expressed
Tested at: not given
Notes: derived from inhibition constants, unchanged parent 615000 nM
Reading: lower = stronger binding
Starting sequence: PafA, mature enzyme, eGFP fusion (Elizabethkingia meningoseptica, UniProt Q9KJX5); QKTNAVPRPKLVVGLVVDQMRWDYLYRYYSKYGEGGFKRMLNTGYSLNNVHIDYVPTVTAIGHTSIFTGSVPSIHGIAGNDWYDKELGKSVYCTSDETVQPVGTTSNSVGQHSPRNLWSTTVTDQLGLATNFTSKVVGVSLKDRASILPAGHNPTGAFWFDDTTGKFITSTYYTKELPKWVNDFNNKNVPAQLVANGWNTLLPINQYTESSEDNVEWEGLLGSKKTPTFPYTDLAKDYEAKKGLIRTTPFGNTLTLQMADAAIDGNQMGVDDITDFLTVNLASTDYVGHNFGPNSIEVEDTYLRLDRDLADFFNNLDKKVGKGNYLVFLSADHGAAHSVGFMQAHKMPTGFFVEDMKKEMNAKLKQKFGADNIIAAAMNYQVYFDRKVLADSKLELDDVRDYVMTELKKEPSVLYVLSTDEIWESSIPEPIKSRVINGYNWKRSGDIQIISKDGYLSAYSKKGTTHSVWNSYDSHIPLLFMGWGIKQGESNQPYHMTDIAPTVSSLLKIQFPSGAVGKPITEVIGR
`H51V` — result for “phosphate dissociation constant”: 595 µM.
For `S170G`, “phosphate dissociation constant” read 1040 µM.
`A240V` — result for “phosphate dissociation constant”: 670 µM.
`E489G`: “phosphate dissociation constant” 433 µM.
`K393V`: “phosphate dissociation constant” 651 µM.
`I296G`: “phosphate dissociation constant” 375 µM.
`L220V` — result for “phosphate dissociation constant”: 689 µM.
Under “phosphate dissociation constant”, `D446G` is recorded as 673 µM.
Under “phosphate dissociation constant”, `T98G` is recorded as 544 µM.
Under “phosphate dissociation constant”, `T121V` is recorded as 552 µM.
For `Y92G`, “phosphate dissociation constant” read 2240 µM.
For `V215G`, “phosphate dissociation constant” read 598 µM.
Under “phosphate dissociation constant”, `G35A` is recorded as 641 µM.
Under “phosphate dissociation constant”, `A78V` is recorded as 499 µM.

Series 3
Target: RING finger protein unkempt homolog, zinc fingers 1-6, GST-SBP tag (UNK, Homo sapiens, UniProt Q9C0B0, residues 30-357)
Sequence of UniProt Q9C0B0 (30-357, looked up): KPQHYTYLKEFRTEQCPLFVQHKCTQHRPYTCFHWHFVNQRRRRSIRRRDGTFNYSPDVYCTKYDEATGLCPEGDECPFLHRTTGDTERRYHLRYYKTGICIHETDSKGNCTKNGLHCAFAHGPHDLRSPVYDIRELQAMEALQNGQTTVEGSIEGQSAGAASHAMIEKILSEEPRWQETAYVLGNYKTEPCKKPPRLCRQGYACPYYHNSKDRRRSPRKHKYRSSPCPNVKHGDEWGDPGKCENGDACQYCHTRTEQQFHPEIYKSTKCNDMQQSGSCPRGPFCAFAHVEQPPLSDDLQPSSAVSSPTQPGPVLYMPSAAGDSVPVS
Technique: RNA Bind-n-Seq
Form: RNA
Sample: in vitro
Tested at: not given
Notes: RNA with constant flanks, human and mouse sites, ends assumed
Relative to: input RNA pool
Reading: higher = stronger binding
With `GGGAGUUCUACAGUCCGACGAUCGAAUCUUCUGACAAUGAAGGUAGGCGUACAACUAGGAGAUUGCUGUCACGGAUAGCUUCUAGCAUGUCAUCUACUUUUUUCUCACGAAGAUCUAGUCAAGAUUCCUUGAAUACAAGAUCUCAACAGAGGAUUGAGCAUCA` the bound/input enrichment was 0.119 ratio.
`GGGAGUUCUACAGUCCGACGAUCGACUCUUUUGGAACACAGUUACCACCGAUGCAUCAGCAGCAAAGAUCUGUAAUGACAGAAGAAUACAAAGUUCCAGAUGGAAUGGUUGGAUUCAUAAUUGGCAGAGGAGGUGAACAGAUCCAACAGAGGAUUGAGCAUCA` has a bound/input enrichment of 0.205 ratio.
`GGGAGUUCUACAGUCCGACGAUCGACCUUGCAAAAGUGCUAUUGAAAAGAACAGUCCAGACUAUUGAGGCAUGCAUUGCUAAUUUUUUCAAUCAAGUCCUGGUGCUGGGAAGAUCAUCAGUAAGUGAUUUGUCAGAACAUGUACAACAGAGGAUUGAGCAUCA` has a bound/input enrichment of 0.212 ratio.
`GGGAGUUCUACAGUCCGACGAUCAUGAGAGUCUCGGUGAGCUCCAAAGGGAGCAUCAGCACUCCAAAUUCUCCAGUGAAAAUGACUCUGAUUCCCAGCCCCAACUCACCCUUCCAAAAGGUGGGAAAACUAGCAAGCUCAGAUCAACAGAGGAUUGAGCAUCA` gave a bound/input enrichment of 0.284 ratio.
For `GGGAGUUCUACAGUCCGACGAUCCAGGUUUCAUCAAUGGGAAUAACACCCUUUUUUGUGGAAAAUGUCAGUGAACUACAAUUGUGUGCCAUUAAGUUAGUCACUGCAGUAUUUUCAAGAUAUGAAAAGCAUAGGCAGUUAAUACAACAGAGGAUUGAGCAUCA`, the bound/input enrichment was 0.561 ratio.
`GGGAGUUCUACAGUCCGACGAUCAUGAUUGACGUGCAGAACAGAGCCUACUUCCAGCAGCACGGCUGUACCUUCACCGCCGUCAUCCCUACCAAUGUCUUUGGGCCUUAUGACAACUUCAACAUCGAAGAUGGCCACGUGCUACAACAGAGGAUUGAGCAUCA` has a bound/input enrichment of 0.0737 ratio.
With `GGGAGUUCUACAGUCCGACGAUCCACGUGUCUGCAGUACUUGAUGUGGACUACUCUCCCACUGGGAAGGAAUUUGUGUCUGCCAGCUUUGAUAAGUCUAUUAGAAUCUUUCCUGUGGACAAGAGCCGAAGCAGGGAAGUGUAUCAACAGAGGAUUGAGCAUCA` the bound/input enrichment was 0.413 ratio.
The bound/input enrichment of `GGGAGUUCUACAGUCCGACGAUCCUCAUACAGAUCCUGCAGCUCAUGGCCAACAGCACACAGAUGAAGAAGGUUAUGUUAACAGUAUUUAAACACAAUCAUGGUGCCUACCAGUUCUUCAGAGAAGCGUUGCAAUUUGAAAUUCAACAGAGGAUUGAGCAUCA` is reported as 0.277 ratio.

Further values, each from its own experiment
`BYSL (Homo sapiens, UniProt Q13895)` — result for interaction screen: “cross-linked” (RRP12 (Homo sapiens, UniProt Q5JTH9); cross-linking MS; hits only).
`AAAVRKPIVLKR`: “binding enrichment score” -0.0293 (human cyclin B1; peptide binding, yeast competitive growth sequencing; peptide, Saccharomyces cerevisiae, cyclin B1-Cln2 fusion; concentration not given, peptide tiling library; direction not given).
`TRAPPC4 (Homo sapiens, UniProt Q9Y296)`: cross-linked residues “K41 to K51” (TRAPPC1 (Homo sapiens, UniProt Q9Y5R8); cross-linking MS; cell fractions; together with: DSSO).
Under cross-linked residues, `HAT1 (Homo sapiens, UniProt O14929)` is recorded as “K366 to K270” (MCM3 (Homo sapiens, UniProt P25205); cross-linking MS; cell fractions; together with: DSSO).
Under interaction screen, `SRSF3 (Homo sapiens, UniProt P84103)` is recorded as “cross-linked” (SRSF7 (Homo sapiens, UniProt Q16629); cross-linking MS; hits only).

Excerpt of the above (series 2):
`H51V` — result for “phosphate dissociation constant”: 595 µM.
For `S170G`, “phosphate dissociation constant” read 1040 µM.
